Assay results collected from several papers.
Numbers after ± are the reported error.
Sequence of UniProt P21554 (whole entry, unmodified, looked up): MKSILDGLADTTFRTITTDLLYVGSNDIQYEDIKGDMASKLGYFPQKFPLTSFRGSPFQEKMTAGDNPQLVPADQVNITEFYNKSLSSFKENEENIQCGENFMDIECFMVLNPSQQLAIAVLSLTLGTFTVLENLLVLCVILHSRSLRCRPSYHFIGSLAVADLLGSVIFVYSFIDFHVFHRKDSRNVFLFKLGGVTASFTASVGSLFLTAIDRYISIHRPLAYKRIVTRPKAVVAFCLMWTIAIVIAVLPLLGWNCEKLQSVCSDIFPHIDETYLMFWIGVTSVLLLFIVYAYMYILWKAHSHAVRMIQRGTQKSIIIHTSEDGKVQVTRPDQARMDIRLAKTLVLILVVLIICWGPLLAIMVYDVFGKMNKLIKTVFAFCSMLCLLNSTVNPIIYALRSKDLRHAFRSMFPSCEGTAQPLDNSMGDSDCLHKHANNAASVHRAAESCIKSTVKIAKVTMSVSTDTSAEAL
Sequence of UniProt Q01959 (whole entry, unmodified, looked up): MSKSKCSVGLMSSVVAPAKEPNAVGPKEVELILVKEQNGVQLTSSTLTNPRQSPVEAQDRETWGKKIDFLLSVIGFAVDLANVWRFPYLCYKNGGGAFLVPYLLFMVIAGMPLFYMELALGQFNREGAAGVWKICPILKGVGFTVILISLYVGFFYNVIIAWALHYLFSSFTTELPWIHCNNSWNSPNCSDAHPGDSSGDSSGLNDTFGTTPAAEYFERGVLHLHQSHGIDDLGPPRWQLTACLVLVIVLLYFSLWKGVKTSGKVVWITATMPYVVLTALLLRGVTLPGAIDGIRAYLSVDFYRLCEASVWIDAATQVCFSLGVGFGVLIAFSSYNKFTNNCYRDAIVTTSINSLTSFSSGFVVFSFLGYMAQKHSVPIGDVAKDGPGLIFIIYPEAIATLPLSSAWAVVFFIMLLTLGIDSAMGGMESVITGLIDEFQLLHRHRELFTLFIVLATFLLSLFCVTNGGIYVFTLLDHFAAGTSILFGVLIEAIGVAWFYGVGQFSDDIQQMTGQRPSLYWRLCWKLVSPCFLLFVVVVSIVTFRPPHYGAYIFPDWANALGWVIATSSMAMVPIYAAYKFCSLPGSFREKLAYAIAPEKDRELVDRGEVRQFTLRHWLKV
Sequence of UniProt P28335 (whole entry, looked up): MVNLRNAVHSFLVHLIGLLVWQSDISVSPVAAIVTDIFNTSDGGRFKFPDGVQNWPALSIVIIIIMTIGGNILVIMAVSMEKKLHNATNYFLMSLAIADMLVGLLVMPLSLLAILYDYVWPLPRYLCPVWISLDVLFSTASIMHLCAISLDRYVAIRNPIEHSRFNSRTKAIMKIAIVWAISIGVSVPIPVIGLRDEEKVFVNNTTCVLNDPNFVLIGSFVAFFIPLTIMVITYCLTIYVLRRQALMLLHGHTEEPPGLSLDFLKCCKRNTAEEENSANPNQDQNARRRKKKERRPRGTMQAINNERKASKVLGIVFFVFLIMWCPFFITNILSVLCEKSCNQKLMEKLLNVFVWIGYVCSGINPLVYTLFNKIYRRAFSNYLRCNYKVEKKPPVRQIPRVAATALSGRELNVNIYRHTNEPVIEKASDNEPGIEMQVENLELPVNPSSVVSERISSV
Sequence of UniProt P49662 (whole entry, looked up): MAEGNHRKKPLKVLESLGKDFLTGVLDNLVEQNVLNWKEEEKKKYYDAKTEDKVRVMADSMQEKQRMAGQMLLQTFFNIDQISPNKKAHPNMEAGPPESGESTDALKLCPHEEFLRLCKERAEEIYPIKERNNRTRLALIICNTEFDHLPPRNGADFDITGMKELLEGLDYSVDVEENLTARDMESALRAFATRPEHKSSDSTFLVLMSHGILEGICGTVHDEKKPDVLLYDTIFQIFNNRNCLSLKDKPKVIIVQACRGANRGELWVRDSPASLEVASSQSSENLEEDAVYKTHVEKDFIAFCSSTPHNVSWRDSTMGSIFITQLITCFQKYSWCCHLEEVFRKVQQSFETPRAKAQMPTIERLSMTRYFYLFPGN
Sequence of UniProt P41143 (whole entry, unmodified, looked up): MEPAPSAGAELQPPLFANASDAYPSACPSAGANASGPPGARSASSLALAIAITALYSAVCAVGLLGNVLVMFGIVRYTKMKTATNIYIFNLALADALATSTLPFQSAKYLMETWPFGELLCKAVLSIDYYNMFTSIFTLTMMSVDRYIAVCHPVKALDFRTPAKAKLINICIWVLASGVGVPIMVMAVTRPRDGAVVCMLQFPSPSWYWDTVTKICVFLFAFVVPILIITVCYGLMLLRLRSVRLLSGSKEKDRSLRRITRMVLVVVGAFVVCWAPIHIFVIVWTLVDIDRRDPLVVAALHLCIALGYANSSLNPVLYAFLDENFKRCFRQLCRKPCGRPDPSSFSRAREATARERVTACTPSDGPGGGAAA

SMILES | target | assay | quantity | result
CC(C)CC(C(=O)N1CC2(CC1C#N)C(=O)Nc1ccccc12)N(C)C(=O)c1cc2c(F)cc(F)c(F)c2[nH]1 (stereo not drawn) | Caspase-4 (CASP4, Homo sapiens, UniProt P49662) | enzyme activity, inhibitor | IC50 | > 100 µM
Nc1ncnc2c1c(-c1ccc(Oc3ccccc3)cc1)nn2C1CCCC1 | SRC (Gallus gallus, UniProt P00523, G530I/P529E/Q528E) | enzyme activity, inhibitor | Ki | < 0.02 µM
CCC[C@@H](C(=O)c1ccccc1)N1CCCC1 | SLC6A3 (Homo sapiens, UniProt Q01959, F76Y) | transporter uptake, inhibitor, radiometric | Ki | 0.064 µM
COc1ccccc1C(C[N+](=O)[O-])c1c(-c2ccccc2)[nH]c2ccccc12 (stereo not drawn) | CNR1 (Homo sapiens, UniProt P21554, L252A) | G protein activation, agonist, BRET | EC50 | > 1000 µM
CCCCCn1cc(C(=O)c2ccc3ccccc3c2)c2ccccc21 | CNR1 (Homo sapiens, UniProt P21554, F177A) | G protein activation, agonist, BRET | EC50 | 0.055 µM
Cc1ccc2c(C(C[N+](=O)[O-])c3cccs3)c(-c3ccccc3)[nH]c2c1 (stereo not drawn) | CNR1 (Homo sapiens, UniProt P21554, L165A) | β-arrestin recruitment, agonist, luciferase | EC50 | 0.18 µM
CCN(CC)C(=O)[C@@H]1C=C2c3cccc4c3c(cn4C(=O)c3ccco3)C[C@H]2N(C)C1 | HTR2C (Homo sapiens, UniProt P28335) | ligand displacement, radioligand | Ki | 0.125 µM
O=[N+]([O-])CC(c1ccco1)c1c(-c2ccccc2)[nH]c2ccccc12 (stereo not drawn) | CNR1 (Homo sapiens, UniProt P21554, I169A) | G protein activation, agonist, BRET | EC50 | > 1000 µM
CCN(CC)C(=O)c1ccc(C(c2cccc(O)c2)N2CC(C)N(Cc3ccccc3)CC2C)cc1 (stereo not drawn) | OPRD1 (Homo sapiens, UniProt P41143, V281A) | – | Ki | 0.0015 ± 0.00017 µM

A few entries again:
SMILES | target | assay | quantity | result
CC(C)CC(C(=O)N1CC2(CC1C#N)C(=O)Nc1ccccc12)N(C)C(=O)c1cc2c(F)cc(F)c(F)c2[nH]1 (stereo not drawn) | Caspase-4 (CASP4, Homo sapiens, UniProt P49662) | enzyme activity, inhibitor | IC50 | > 100 µM
